Experimental data of several laboratories.
Compare with care: the assays were run in different laboratories. “And” joins repeats or separate records; there may be more than shown. Numbers after ± are the reported error.

Under “cleaved caspase 9 level”, `O=S(=O)(N[C@H]1CCO[C@@H](C2c3ccccc3CCc3ccccc32)C1)c1ccc(OC(F)(F)F)cc1` is recorded as “increased” (D341; immunoblot; concentration not given, 72 h).
`CC(=O)N1CCC[C@H]1C(=O)N[C@H](C(=O)NCC(=O)N[C@@H](CC(=O)O)C(=O)COC(=O)c1c(C)cccc1C)C(C)(C)C` gave a cell lysis of 37.1% (THP-1 cells, LPS-primed; pyroptosis, LDH release; 25 µM, LPS 1 µg/mL, 4 h, together with: nigericin 5 µM, 2 h).
For `Cc1ccc(-c2ccc(C3CCCCC3)cc2)cn1`, the hepatic clearance was 52 mL/min/kg (liver microsome stability; rat liver microsomes; 1 µM).
`COc1cccc(CNC[C@@](O)(COCc2ccccc2)[C@@H]2CC[C@@H](C)C[C@H]2OCc2ccccc2)c1` gave an inhibition of 84.1% (A2780; cell growth or viability, MTT; 10 µM, 72 h).
The inhibition of `CN(C12CCCC(C)(CCC3C1CC3(C)C)C2)S(=O)(=O)c1ccccc1` (centres unmarked) is reported as < 50% (HT-29; cell growth or viability, CCK-8; 10 µM).
With `CC(C)c1ccc(N(C)c2ccc3c(c2)OCC[C@H]3CNc2cnccc2C(=O)O)cc1` the IC50 was 57.8 nM (LoVo; cell growth or viability, ATP luminescence; 7 days).
The colony count of `COc1ccccc1-c1ccncc1C(=O)Nc1nnc(OCc2ccc(Cl)cc2)s1` is reported as 32 and 34 and 23 and 19 (MDA-MB-231; 6 µM, single replicate).
`CC(=O)N[C@@H](Cc1c[nH]c2ccccc12)C(=O)N[C@@H](CCC(=O)O)C(=O)N[C@@H](C)C(=O)N[C@@H](CC(=O)O)C(=O)COC(=O)c1c(C)cccc1C` has a cell lysis of 34.8% (THP-1 cells, LPS-primed; pyroptosis, LDH release; 25 µM, LPS 1 µg/mL, 4 h, together with: nigericin 5 µM, 2 h).
With `CCN(CC)CC(=O)Nc1cccc(-n2cc(-c3ccc4ccc(-c5cn(-c6cccc(NC(=O)CN(CC)CC)c6)nn5)cc4c3)nn2)c1` the fold regulation was 1.06 (RCC4; PCR angiogenesis array, measured: KDR; 5 x IC50, 4 h, normoxia; reference: untreated).
Under “log2 fold change”, `Cc1ncsc1-c1ccc(C(C)NC(=O)C2CC(O)CN2C(=O)C(NC(=O)CCCCCCCCCCN2CCCC(Nc3ncc(Cl)c(Nc4ccccc4S(=O)(=O)C(C)C)n3)C2)C(C)(C)C)cc1` (centres unmarked) is recorded as -1.01 (22Rv1; RNA-seq, measured: TNFRSF1A mRNA; concentration not given; reference: DMSO).
`CN1CCCNC(=O)c2cccc(c2)C(=O)NCCCN(C)CCCNc2cccc3c2C(=O)c2cccc(c2C3=O)NCCC1`: “log2 fold change” -0.81 (SAS; RNA-Seq, measured: CYB561A3 mRNA; 1 µM, 6 h; reference: untreated cells).
The inhibition of `CCC(=CCc1c(O)cc2c(c1O)C(=O)CC(c1cccc(O)c1OC)O2)CC` (centres unmarked) is reported as 12.3% (HeLa; cell growth or viability, MTT; 6.25 µM, 48 h).
`C[n+]1cccc2cc(/C=N/NC(=O)C(=O)N/N=C/c3ccc4c(ccc[n+]4C)c3)ccc21` gave a ΔTm of 3 ± 1.6 °C (22CTA telomeric G4-DNA antiparallel; FRET melting; 1 µM, K10 buffer, DNA 0.2 µM).
`N#C[C@@H]1CC(F)(F)CN1C(=O)CNC(=O)c1ccnc2ccc(OCCCN3CCN(C(=O)CCc4ccc(O)c(CN5CCN6CC(=O)[O][Al-]([18F])([O]C(=O)C5)[O]c5ccc(CCC(=O)N7CCN(CCCOc8ccc9nccc(C(=O)NCC(=O)N%10CC(F)(F)C[C@H]%10C#N)c9c8)CC7)cc5C6)c4)CC3)cc12` (some centres unmarked) has an internalized fraction of 85.8 ± 1.6% (HT1080 cells expressing human FAP; 90 min, 37 °C).
With `CCc1c(-c2ccc3[nH]ncc3c2)cnc(N)c1-c1ccc(O)cc1` the viability was 114% (CHP-212 resistant sublines, USP7 V517F heterozygous; 3.125 µM).
With `O=C(Nc1ccc(Sc2ccc3c(/C=C/c4ccccn4)n[nH]c3c2)cc1)C1CCCN1` (centres unmarked) the GI50 was 2990 nM (BaF3; cell growth or viability, CCK-8).
For `CNS(=O)(=O)Nc1nccc(Cc2c(C)c3ccc(Oc4ncccc4F)cc3oc2=O)c1F`, the IC50 was > 1000 nM (NCI-H2052; cell viability; 7 days).
`O=S(=O)(Nc1ccc(OC(F)(F)F)cc1)N1CCCC(C2c3ccccc3CCc3ccccc32)C1` (centres unmarked) — result for protein level: “decreased” (D425; immunoblot, measured: CIP2A; concentration not given).
`CCCS(=O)(=O)NC12CCCC(C)(CCC3C1CC3(C)C)C2` (centres unmarked) gave an inhibition of < 50% (HT-29; cell growth or viability, CCK-8; 10 µM).
`C=CC(=O)N1[C@H](c2ccc3c(c2)OCO3)c2[nH]c3ccccc3c2C[C@H]1C(=O)N1CCOCC1` — result for “decreased accessible sites”: 960 sites (22Rv1; ATAC-seq; concentration not given, log2FC -1).
The hepatic clearance of `O=C(NCCOc1ccc(F)cc1)c1ccc(C2CCCCC2)cc1` is reported as 28 mL/min/kg (liver microsome stability; dog liver microsomes; 1 µM).
`O=C(N/N=C/c1ccc(C[n+]2ccccc2)cc1)c1cccc(C(=O)N/N=C/c2ccc(C[n+]3ccccc3)cc2)n1` has a ΔTm of 11.5 ± 0.8 °C (22CTA telomeric G4-DNA antiparallel; FRET melting; 1 µM, K10 buffer, DNA 0.2 µM).
For `CCC(=CCc1c(O)cc2c(c1O)C(=O)CC(c1cccc(O)c1)O2)CC` (centres unmarked), the inhibition was 96.6% (HeLa; cell growth or viability, MTT; 100 µM, 48 h).
